Results from different studies.
± marks the error that the study gave.
OPRD1: Delta-type opioid receptor (OPRD1, Homo sapiens, UniProt P41143)
UniProt P41143, sequence (whole entry, looked up): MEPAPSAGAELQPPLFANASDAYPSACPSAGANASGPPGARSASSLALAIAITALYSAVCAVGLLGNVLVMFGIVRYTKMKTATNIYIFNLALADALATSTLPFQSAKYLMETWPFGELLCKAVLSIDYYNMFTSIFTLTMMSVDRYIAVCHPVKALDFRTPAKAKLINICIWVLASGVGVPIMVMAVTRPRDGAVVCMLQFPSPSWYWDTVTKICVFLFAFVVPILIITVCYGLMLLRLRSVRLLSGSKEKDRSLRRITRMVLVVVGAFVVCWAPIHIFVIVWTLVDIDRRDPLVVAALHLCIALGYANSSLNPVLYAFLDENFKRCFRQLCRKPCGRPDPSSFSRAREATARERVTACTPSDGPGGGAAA
OPRD1 with β-arrestin2: Delta-type opioid receptor, with β-arrestin2 (OPRD1, Homo sapiens, UniProt P41143)

For CC(C)C[C@H](NC(=O)[C@@H]1CCCN1C(=O)[C@@H]1NC(=O)[C@H](Cc2ccccc2)NC(=O)CNC(=O)[C@H](NC(=O)[C@@H](N)Cc2ccc(O)cc2)C(C)(C)SSC1(C)C)C(=O)N[C@@H](Cc1c[nH]c2ccccc12)C(=O)NCc1cc(C(F)(F)F)cc(C(F)(F)F)c1, the Emax was 49% (OPRD1; GTPγS binding, agonist, radiometric; cell membranes).
With Cc1cc(O)cc(C)c1C[C@H](N)C(=O)N1Cc2ccccc2C[C@H]1C(=O)NCC(=O)NCc1ccccc1 the Emax was 6.8% (OPRD1; GTPγS binding, agonist, radiometric; cell membranes).
For Cc1cc(O)cc(C)c1C[C@H](N)C(=O)N[C@H](C)C(=O)NCC(=O)N[C@@H](Cc1ccccc1)C(=O)NNC(=O)[C@H](Cc1ccccc1)NC(=O)CNC(=O)[C@@H](C)NC(=O)[C@@H](N)Cc1c(C)cc(O)cc1C, the Emax was 35 to 60% (OPRD1; GTPγS binding, agonist, radiometric; cell membranes).
CCCC[C@H](NC(=O)[C@H](Cc1ccccc1)NC(=O)CNC(=O)[C@@H](C)NC(=O)[C@@H](N)Cc1ccc(O)cc1)C(=O)N1CCC[C@H]1C(=O)N[C@@H](CC(C)C)C(=O)N[C@@H](CO[C@@H]1O[C@H](CO)[C@@H](O)[C@H](O)[C@H]1O)C(=O)N[C@@H](Cc1c[nH]c2ccccc12)C(=O)NCc1cc(C(F)(F)F)cc(C(F)(F)F)c1 gave an Emax of 49% (OPRD1; GTPγS binding, agonist, radiometric).
N=C(N)NCCCCCN1CC[C@]23c4c5ccc(O)c4O[C@H]2c2[nH]c4ccccc4c2C[C@@]3(O)[C@H]1C5 has an Emax of 76 ± 3% (Delta-type opioid receptor, with Gi1 (OPRD1, Homo sapiens, UniProt P41143); human cells).
The Emax of C[C@H]1[C@H]2CCC[C@]1(c1cccc(O)c1)CCN2CCc1ccccc1 is reported as -20.3% (OPRD1; GTPγS binding, agonist, radiometric; cell membranes).
CCCC[C@@H]1NC(=O)[C@H](Cc2ccccc2)NC(=O)CNC(=O)[C@H](NC(=O)[C@@H](N)Cc2ccc(O)cc2)C(C)(C)SSC(C)(C)[C@@H](C(=O)N[C@@H](Cc2c[nH]c3ccccc23)C(=O)NCc2cc(C(F)(F)F)cc(C(F)(F)F)c2)NC(=O)[C@@H]2CCCN2C1=O has an Emax of 63% (OPRD1; GTPγS binding, agonist, radiometric; cell membranes).
The Emax of C[C@@H](NC(=O)[C@@H](N)Cc1ccc(O)cc1)C(=O)NCC(=O)N[C@@H](Cc1ccc(F)cc1)C(=O)N1CCN(C(=O)[C@H](Cc2ccc(F)cc2)NC(=O)CNC(=O)[C@@H](C)NC(=O)[C@@H](N)Cc2ccc(O)cc2)CC1 is reported as 94.1% (OPRD1; GTPγS binding, agonist; cell membranes).
N=C(N)NCCCCCCCN1CC[C@]23c4c5ccc(O)c4O[C@H]2c2nc4ccccc4cc2C[C@@]3(O)[C@H]1C5 gave an Emax of 72 ± 3% (OPRD1 with β-arrestin2; human cells).
With CCCC[C@H](NC(=O)[C@H](Cc1ccccc1)NC(=O)CNC(=O)[C@@H](C)NC(=O)[C@@H](N)Cc1ccc(O)cc1)C(=O)N[C@@H](CO[C@@H]1O[C@H](CO)[C@@H](O)[C@H](O)[C@H]1O)C(=O)N[C@@H](CC(C)C)C(=O)N[C@@H](Cc1c[nH]c2ccccc12)C(=O)NCc1cc(C(F)(F)F)cc(C(F)(F)F)c1 the Emax was 134% (OPRD1; GTPγS binding, agonist, radiometric).
CCCCCCCCN1CCC23c4c5ccc(O)c4OC2c2nc4ccccc4cc2CC3(O)C1C5 (stereo not drawn) gave an Emax of 64 ± 2% (OPRD1 with β-arrestin2; human cells).
With C[C@@H](NC(=O)[C@@H](N)Cc1ccc(O)cc1)C(=O)NCC(=O)N[C@@H](Cc1ccc(F)cc1)C(=O)Nc1ccccc1NC(=O)[C@H](Cc1ccc(F)cc1)NC(=O)CNC(=O)[C@@H](C)NC(=O)[C@@H](N)Cc1ccc(O)cc1 the Emax was 71.6% (OPRD1; GTPγS binding, agonist; cell membranes).
